# Measurements gathered from unrelated publications.
# Every numbered part comes from another study and shows a few of its results, in no order. Positions count from the first letter of the parent shown.

# Set 1
# Target: CCNB3, cyclin fold, Cln2 fusion (human)
# Method: yeast growth competition, sequencing
# Medium: yeast
# Notes: strong parent motif
# Baseline: not given
# Direction: higher = stronger binding
# Parent: viral docking peptide; TSVRRALFTGGSD
Substitution,normalised enrichment score
TFVRRALFTGGSD [S2F],1.7
TSVRRALVTGGSD [F8V],0.0505
TSVRRALFTGHSD [G11H],1.66
TSVRRALFTGFSD [G11F],1.6
TSVRRALFTCGSD [G10C],1.97
TSVRKALLTGGSD [R5K F8L],0.281
TSCRRALFTGGSD [V3C],1.68
TSVRFALFTGGSD [R5F],-0.0115
TSVQRALFTGGSD [R4Q],0.156
TSVRRALFTGGVD [S12V],1.97
TLVRRALFTGGSD [S2L],1.46
TSFRRALFTGGSD [V3F],0.235
TSVRRALMTGGSD [F8M],0.0972
TSVRRALFTGGRD [S12R],1.7
TSVRRALFTGESD [G11E],2.32
TSVYRALFTGGSD [R4Y],0.465
TSVRRALFTRGSD [G10R],1.5
TSVRRALFTPGSD [G10P],1.68

# Set 2
# Target: inorganic phosphate, free oxyanion
# Method: microfluidic competitive inhibition
# Medium: in vitro, cell-free expressed
# Concentration: not given
# Notes: derived from inhibition constants, unchanged parent 615000 nM
# Direction: lower = stronger binding
# Parent: PafA, mature enzyme, eGFP fusion (Elizabethkingia meningoseptica, UniProt Q9KJX5); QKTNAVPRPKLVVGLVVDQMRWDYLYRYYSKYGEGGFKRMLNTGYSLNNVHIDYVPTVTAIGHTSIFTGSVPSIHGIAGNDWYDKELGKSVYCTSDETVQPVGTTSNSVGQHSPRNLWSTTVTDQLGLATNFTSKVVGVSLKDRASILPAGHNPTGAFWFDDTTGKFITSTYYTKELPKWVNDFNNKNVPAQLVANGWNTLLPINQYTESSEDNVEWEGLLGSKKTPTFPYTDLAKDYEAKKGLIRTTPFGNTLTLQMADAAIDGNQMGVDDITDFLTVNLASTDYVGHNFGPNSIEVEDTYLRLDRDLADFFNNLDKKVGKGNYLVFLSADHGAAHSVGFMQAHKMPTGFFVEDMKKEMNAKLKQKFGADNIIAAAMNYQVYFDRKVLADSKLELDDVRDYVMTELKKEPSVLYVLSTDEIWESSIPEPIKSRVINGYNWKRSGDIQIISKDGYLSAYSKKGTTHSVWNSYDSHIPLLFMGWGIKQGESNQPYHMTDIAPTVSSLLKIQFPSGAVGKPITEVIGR
Substitution,phosphate dissociation constant [µM]
I524G,424
Q1V,655
L126V,664
V503A,544
D420G,540
Y415G,346
G517V,264

# Set 3
# Target: UDP-N-acetylglucosamine--peptide N-acetylglucosaminyltransferase 110 kDa subunit (OGT, Homo sapiens, UniProt O15294)
# Sequence of UniProt O15294 (whole entry, looked up): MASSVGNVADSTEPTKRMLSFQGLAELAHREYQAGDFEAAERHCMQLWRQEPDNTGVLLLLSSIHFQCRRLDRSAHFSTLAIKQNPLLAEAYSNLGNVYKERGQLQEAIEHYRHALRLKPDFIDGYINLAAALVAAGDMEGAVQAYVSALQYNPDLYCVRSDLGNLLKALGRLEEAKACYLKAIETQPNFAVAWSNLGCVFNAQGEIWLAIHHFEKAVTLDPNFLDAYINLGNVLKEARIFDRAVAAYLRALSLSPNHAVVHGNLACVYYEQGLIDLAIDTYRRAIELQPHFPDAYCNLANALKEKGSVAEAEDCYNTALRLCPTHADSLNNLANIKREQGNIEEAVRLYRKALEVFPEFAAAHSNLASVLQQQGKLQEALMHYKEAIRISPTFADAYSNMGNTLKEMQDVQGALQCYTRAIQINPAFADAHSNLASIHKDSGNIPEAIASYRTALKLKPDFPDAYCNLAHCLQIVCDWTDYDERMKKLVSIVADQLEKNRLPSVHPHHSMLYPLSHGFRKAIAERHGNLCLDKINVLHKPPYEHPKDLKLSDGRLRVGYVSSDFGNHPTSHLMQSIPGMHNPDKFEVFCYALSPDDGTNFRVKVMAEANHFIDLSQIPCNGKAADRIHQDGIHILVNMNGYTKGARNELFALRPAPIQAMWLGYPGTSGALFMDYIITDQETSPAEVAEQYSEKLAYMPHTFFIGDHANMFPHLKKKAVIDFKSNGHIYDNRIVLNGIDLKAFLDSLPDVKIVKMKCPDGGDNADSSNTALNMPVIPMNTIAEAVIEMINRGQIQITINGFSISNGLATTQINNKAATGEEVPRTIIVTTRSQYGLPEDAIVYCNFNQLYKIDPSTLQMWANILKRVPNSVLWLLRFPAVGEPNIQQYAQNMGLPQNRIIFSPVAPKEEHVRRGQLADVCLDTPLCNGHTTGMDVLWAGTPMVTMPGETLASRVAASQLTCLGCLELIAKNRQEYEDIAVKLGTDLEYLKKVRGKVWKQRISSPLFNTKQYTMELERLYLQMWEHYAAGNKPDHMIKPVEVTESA
# Read-out: binding
# Method: phage display NGS
# Molecule type: peptide
# Concentration: concentration not given
# Baseline: input library
Molecule,enrichment fold change
DHHYHPHTWTWFTAP,3.82
TFMPQTHHRPHHSNH,10.1
HKPMLHHRWRDIDNL,9.21
HVNSRFWFHTQDHHP,4.17
YYHTPRHDQMHVYVR,5.65
SFKHYDHTFHYHEGS,8.47
DYIYGHSHPHIMNHN,9.58

# Set 4
# Target: Prothrombin, mature alpha-thrombin (F2, Homo sapiens, UniProt P00734)
# Method: aptamer microarray, sandwich
# Molecule type: DNA with 2'F-ANA
# Medium: in vitro
# Concentration: 200 nM
# Notes: whole 15-mer aptamer, many near background
# Added: Cy3 exosite-II aptamer, 400 nM
# Direction: higher = stronger binding
# Strand: GGTTGGTGTGGTTGG
Modification,mean fluorescence intensity [a.u.]
2'F-ANA at 2 3 5 7 9 12 14,100
2'F-ANA at 2 5 8 11 13 14 15,48.1
2'F-ANA at 1 4 5 6 10 14,47.2
2'F-ANA at 1 4 8 9 10 12,62.7
2'F-ANA at 2 6 7 9 10 13 14 15,79.7
2'F-ANA at 2 3 4 5 6 8 10 12 15,60.4
2'F-ANA at 1 3 6 8 9 10 11 13 14 15,59.2
2'F-ANA at 2 4 5 7 8 13 14,55.2
